Values quoted from earlier work as cited in several papers.
Protocols differ between the studies behind these lines. “And” joins repeats or separate records; there may be more than shown. ± marks the error that the study gave. ≈ marks a conversion by molar mass, not a printed value.
Sequence of UniProt Q8TD08 (whole entry, looked up): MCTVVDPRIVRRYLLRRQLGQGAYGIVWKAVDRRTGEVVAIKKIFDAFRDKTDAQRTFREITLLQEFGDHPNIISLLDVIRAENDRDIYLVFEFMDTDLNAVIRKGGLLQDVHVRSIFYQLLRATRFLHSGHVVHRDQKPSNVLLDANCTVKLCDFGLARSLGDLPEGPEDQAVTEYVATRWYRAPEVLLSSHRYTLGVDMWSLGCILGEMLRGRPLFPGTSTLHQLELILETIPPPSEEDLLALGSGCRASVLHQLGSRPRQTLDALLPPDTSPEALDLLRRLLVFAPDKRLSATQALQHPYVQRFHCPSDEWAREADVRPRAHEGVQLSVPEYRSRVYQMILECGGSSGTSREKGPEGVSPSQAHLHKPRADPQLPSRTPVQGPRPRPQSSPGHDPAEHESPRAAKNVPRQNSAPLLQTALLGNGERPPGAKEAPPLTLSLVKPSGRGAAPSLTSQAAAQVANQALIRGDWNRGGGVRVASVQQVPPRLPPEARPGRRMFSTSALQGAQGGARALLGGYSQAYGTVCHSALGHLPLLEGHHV

| SMILES | tested on | test | system | conditions | scale | quantity | value |
| --- | --- | --- | --- | --- | --- | --- | --- |
| CN1CCN(C2=Nc3cc(Cl)ccc3Nc3ccccc32)CC1 |  |  | human |  |  | free Cmax | 0.0835 µM |
| Nc1ncnc2c1ncn2[C@@H]1O[C@H](CO)C[C@@H]1F |  |  | human |  |  | oral bioavailability | 75% |
| C#C[C@]1(O)CC[C@H]2[C@@H]3CCc4cc(O)ccc4[C@H]3CC[C@@]21C |  |  | human, fed | 0.025, single dose |  | Cmax, mean | 0.0962 ng/mL |
| C[C@@H](O)[C@H]1C(=O)N2C(C(=O)O)=C(SCCN=CN)C[C@H]12 |  | perpetrator, refers to: valproic acid | human, serum | dose not given | relative to: without compound | serum concentration reduction | 73% |
| C[C@@H](O[C@H]1OCCN(Cc2n[nH]c(=O)[nH]2)[C@H]1c1ccc(F)cc1)c1cc(C(F)(F)F)cc(C(F)(F)F)c1 |  |  | FaSSIF | literature value |  | solubility | 5.4 µg/mL (≈ 10.1 µM) |
| Nc1ccn([C@H]2CO[C@@H](CO)S2)c(=O)n1 |  |  | human | 800 mg |  | oral bioavailability | 65 to 80% |
| Cn1c(Cn2ccc(C(F)(F)F)c(Oc3cc(Cl)cc(C#N)c3)c2=O)n[nH]c1=O |  |  | human, urine | single 50 mg |  | dose excreted unchanged | 6% |
| Cn1cnc2c(F)c(Nc3ccc(Br)cc3Cl)c(C(=O)NOCCO)cc21 |  |  | water |  |  | solubility | < 1000 µg/mL |
| CC#CC(=O)N[C@H]1CCCN(c2c(F)cc(C(N)=O)c3[nH]c(C)c(C)c23)C1 |  |  | human | 10 mg once daily |  | volume of distribution | 221 L |
| CCc1nc(N)nc(N)c1-c1ccc(Cl)cc1 |  |  | water |  |  | solubility | < 1000 µg/mL |
| CC(=O)Oc1ccccc1C(=O)O |  |  | plasma | literature data |  | free Cmax | 2.4 µM |
| Nc1ccn([C@@H]2O[C@H](CO)[C@@H](O)C2(F)F)c(=O)n1 |  |  | metastatic pancreatic cancer patients | dose not given |  | grade 1-4 thrombocytopenia incidence | 70% |
| NS(=O)(=O)Cc1noc2ccccc12 |  |  | water |  |  | solubility | < 1000 µg/mL |
| CO[C@H]1/C=C/O[C@@]2(C)Oc3c(C)c(O)c4c(O)c(c(/C=N/N5CCN(C)CC5)c(O)c4c3C2=O)NC(=O)/C(C)=C\C=C\[C@H](C)[C@H](O)[C@@H](C)[C@@H](O)[C@@H](C)[C@H](OC(C)=O)[C@@H]1C |  |  | plasma | concentration not given, total, steady state |  | Cmax | 13.1 µM |
| Cc1cc(C)c(CNC(=O)c2cc(Cl)c3c(c2C)O[C@@](C)([C@H]2CC[C@H](N(C)C)CC2)O3)c(=O)[nH]1 |  |  | human | dose not given, mass balance | relative to: dose | unchanged drug in faeces | 64.9% |
| O=C(c1cc(Cc2n[nH]c(=O)c3ccccc23)ccc1F)N1CCN(C(=O)C2CC2)CC1 |  |  | human | oral, dose not given, capsule |  | Cmax at steady state | 5700 ng/mL |
| CO[C@@H](C)Cn1c(=O)n(C)c2cnc3ccc(-c4cncc(C(C)(C)O)c4)cc3c21 |  |  | human | concentration not given, preliminary, with: enzalutamide co-administration |  | exposure decrease | ~30% |
| CNC(C)C1CCC(N)C(OC2C(N)CC(N)C(OC3OCC(C)(O)C(NC)C3O)C2O)O1 (stereo not drawn) | Acinetobacter baumannii |  | clinical isolate RKI-No_30/16 |  |  | MIC | > 8 µg/mL |
| c1ccc2c(c1)ccc1ccccc12 |  |  | zebrafish embryos, whole embryo | 206.7 ng/well, 48 hpf, single exposure |  | amount in tissue | 10.6 ng/well and 11.6 ng/well |
| O=C1NC(=O)/C(=C/c2ccc3ncnc(N4CCCCC4)c3n2)S1 |  |  | mouse | intravenous |  | half-life | 1.2 h |
| NC(=O)N1c2ccccc2CC(=O)c2ccccc21 |  |  | water |  |  | solubility | < 1000 µg/mL |
| CCc1cc(/C(C)=N/OCc2ccc(C3CCCCC3)c(C(F)(F)F)c2)ccc1CN1CC(C(=O)O)C1 |  | population PK | human, CYP2C9*1/*3 |  |  | clearance | 2.03 L/h |
| CC[C@H]1OC(=O)[C@H](C)[C@@H](O[C@H]2C[C@@](C)(OC)[C@@H](O)[C@H](C)O2)[C@H](C)[C@@H](O[C@@H]2O[C@H](C)C[C@H](N(C)C)[C@H]2O)[C@](C)(OC)C[C@@H](C)C(=O)[C@H](C)[C@@H](O)[C@]1(C)O |  |  | FaSSIF | literature value |  | solubility | 132 µg/mL (≈ 176 µM) |
| CNC(=O)c1c(C)oc2cc(Oc3ncnc4cc(OC)c(OC)cc34)ccc12 |  |  | feces | 5 mg radiolabelled, time not given |  | unchanged dose recovered | 5.34% |
| CNC(=O)CN(CCN(CCN(CC(=O)[O-])CC(=O)NC)CC(=O)[O-])CC(=O)[O-].[Gd+3] |  |  |  | 0.1 mmol/kg |  | half-life | 1.29 ± 0.26 h |
| NC[C@H]1O[C@H](O[C@H]2[C@H](O)[C@@H](O[C@H]3O[C@H](CO)[C@@H](O)[C@H](N)[C@H]3O)[C@H](N)C[C@@H]2N)[C@H](N)C[C@@H]1O |  |  | plasma |  |  | plasma fraction unbound | 1 |

| SMILES | tested on | test | system | conditions | scale | quantity | value |
| --- | --- | --- | --- | --- | --- | --- | --- |
| Cc1cc(-c2nccc3c2ccn3CC(=O)Nc2ccc(-c3cnccn3)cn2)ccn1 |  |  | dog male | single dose |  | dose with tubular degeneration | 200 mg/kg |
| CC(C)Nc1nc2cc(Cl)c(Cl)cc2n1[C@H]1O[C@@H](CO)[C@H](O)[C@@H]1O |  |  | healthy volunteers | dose not given |  | terminal elimination half-life | 3 to 4.8 h |
| CN[C@H]1CC[C@@H](c2ccc(Cl)c(Cl)c2)c2ccccc21 |  |  | human patients | dose not given, with: esomeprazole | relative to: no esomeprazole | increase in concentration | 38.5% |
| COc1ccc(/C=C/C(=O)Nc2ccccc2C(=O)O)cc1OC |  |  | plasma | concentration not given, total, steady state |  | Cmax | 37 µM |
| Cc1cn([C@H]2C[C@H](N=[N+]=[N-])[C@@H](CO)O2)c(=O)[nH]c1=O |  |  | monkey | 60 mg/kg |  | oral bioavailability | 45% |
| CC1(C)S[C@@H]2[C@H](NC(=O)[C@H](N)c3ccccc3)C(=O)N2[C@H]1C(=O)O | Acinetobacter baumannii |  | clinical isolate RKI-No_30/16 |  |  | MIC | > 16 µg/mL |
| COCCc1ccc(OCC(O)CNC(C)C)cc1 (stereo not drawn) |  |  | human fasted | 200 mg multiple doses, day 5, mean |  | AUC(0-24 h) | 1540 ng·h/mL |
| C=C1[C@H](CO)[C@@H](O)C[C@@H]1n1cnc2c(=O)[nH]c(N)nc21 |  |  | human |  |  | oral bioavailability | 70% |
| CNCc1cc(-c2ccccc2F)n(S(=O)(=O)c2cccnc2)c1 |  |  | human, plasma | 10 mg multiple dose, observed clinical data |  | Ctrough | 1.11 ng/mL |
| C[Si](C)(C)O[Si](C)(C)C |  |  | 1-octanol/water | 25 °C |  | log KOW | 4.76 |
| CCCCCCCCCCCCCCCC(=O)N[C@@H](CCC(=O)NCCCC[C@@H]1NC(=O)[C@H]([C@@H](C)CC)NC(=O)[C@@H](NC(=O)[C@@H]2CCCN2C(=O)[C@H](Cc2ccccc2)NC(=O)[C@H](Cc2c[nH]cn2)NC(=O)[C@@H](NC(=O)[C@H](CC(=O)O)NC(=O)CC(C)C)[C@@H](C)O)CSSC[C@@H](C(=O)N[C@@H](CCCCN)C(N)=O)NC(=O)CNC(=O)[C@H](CCCCN)NC(=O)[C@H](CO)NC(=O)[C@H](CCCNC(=N)N)NC(=O)[C@@H]2CCCN2C(=O)[C@H](CCC(=O)O)NC(=O)[C@H](Cc2ccccc2)NC1=O)C(=O)O |  |  | cynomolgus monkey, plasma | subcutaneous, 0.3 mg/kg |  | Tmax | 8 h |
| Cc1cc2c(s1)Nc1ccccc1N=C2N1CCN(C)CC1 |  |  | healthy male volunteers | dose not given, with: carbamazepine 200 mg twice daily for 2 weeks |  | Cmax decrease | 25% |
| C[Si]1(C)O[Si](C)(C)O[Si](C)(C)O[Si](C)(C)O[Si](C)(C)O1 |  |  | 1-octanol/water | 23 °C |  | log KOW | 5.71 |
| Nc1cc(C(F)(F)F)c(-c2nc(N3CCOCC3)nc(N3CCOCC3)n2)cn1 | MAPK15 (Homo sapiens, UniProt Q8TD08) | enzyme activity |  | 10 µM | relative to: untreated | remaining activity | 100% |
| OC[C@H]1O[C@@H](c2ccc(Cl)c(Cc3ccc(O[C@H]4CCOC4)cc3)c2)[C@H](O)[C@@H](O)[C@@H]1O |  |  | supercritical CO2 |  |  | crossover pressure | 140 to 160 bar |
| Cc1cnc(NC(=O)C2=C(O)c3ccccc3S(=O)(=O)N2C)s1 |  |  | water |  |  | solubility | < 1000 µg/mL |
| CC(C)(C)c1cc(C(C)(C)C)c(NC(=O)c2c[nH]c3ccccc3c2=O)cc1O |  |  | human |  |  | blood-to-plasma ratio | 0.55 |
| CNC(=O)c1ccccc1Sc1ccc2c(/C=C/c3ccccn3)n[nH]c2c1 |  |  | human | concentration not given, clinical |  | diarrhoea incidence | 54% |
| COc1cc2c(Oc3ccc4[nH]c(C)cc4c3F)ccnc2cc1OCC1(N)CC1 |  |  | human | 12 mg single dose |  | Tmax | 7.3 ± 3.3 h |
| CC(=O)N1CCN(c2ccc(OCC3COC(Cn4ccnc4)(c4ccc(Cl)cc4Cl)O3)cc2)CC1 (stereo not drawn) |  |  | supercritical CO2 |  |  | crossover pressure | 130 to 150 bar |
| CCn1cc(C(=O)O)c(=O)c2cc(F)c(N3CCNCC3)nc21 |  |  | plasma |  |  | free Cmax | 14 µM |
| CN(C)CCCC1(c2ccc(F)cc2)OCc2cc(C#N)ccc21 (stereo not drawn) |  |  | human |  |  | free Cmax | 0.113 µM |
| CO[C@]1(C(=O)N[C@@H](C)c2ccc(-n3cc(F)cn3)nc2)CC[C@H](c2nc(C)cc(Nc3cc(C)[nH]n3)n2)CC1 |  |  | human | dose not given | relative to: dose | cumulative radioactivity recovery | 78.6% |
| Cc1ccc(NC(=O)c2ccc(CN3CCN(C)CC3)cc2)cc1Nc1nc(-c2cccnc2)cs1 |  |  | human | dose not given, steady state estimated |  | total clearance | 42 to 84 L/h |
| CN(C)C(=O)c1cc2cnc(Nc3ccc(N4CCNCC4)cn3)nc2n1C1CCCC1 |  |  | human | 400 mg single dose, with: ritonavir 100 mg twice daily for 14 days | relative to: compound alone | increase in Cmax | 1.7 fold |

A few entries again:
| SMILES | tested on | test | system | conditions | scale | quantity | value |
| --- | --- | --- | --- | --- | --- | --- | --- |
| O=C(c1cc(Cc2n[nH]c(=O)c3ccccc23)ccc1F)N1CCN(C(=O)C2CC2)CC1 |  |  | human | oral, dose not given, capsule |  | Cmax at steady state | 5700 ng/mL |
| CO[C@@H](C)Cn1c(=O)n(C)c2cnc3ccc(-c4cncc(C(C)(C)O)c4)cc3c21 |  |  | human | concentration not given, preliminary, with: enzalutamide co-administration |  | exposure decrease | ~30% |
| CNC(C)C1CCC(N)C(OC2C(N)CC(N)C(OC3OCC(C)(O)C(NC)C3O)C2O)O1 (stereo not drawn) | Acinetobacter baumannii |  | clinical isolate RKI-No_30/16 |  |  | MIC | > 8 µg/mL |
| c1ccc2c(c1)ccc1ccccc12 |  |  | zebrafish embryos, whole embryo | 206.7 ng/well, 48 hpf, single exposure |  | amount in tissue | 10.6 ng/well and 11.6 ng/well |
| O=C1NC(=O)/C(=C/c2ccc3ncnc(N4CCCCC4)c3n2)S1 |  |  | mouse | intravenous |  | half-life | 1.2 h |
| NC(=O)N1c2ccccc2CC(=O)c2ccccc21 |  |  | water |  |  | solubility | < 1000 µg/mL |
